Assay results collected from several papers.
Numbers after ± are the reported error.
Target: Voltage-gated inwardly rectifying potassium channel KCNH2 (KCNH2, Homo sapiens, UniProt Q12809)
Chain of UniProt Q12809 (whole entry, looked up): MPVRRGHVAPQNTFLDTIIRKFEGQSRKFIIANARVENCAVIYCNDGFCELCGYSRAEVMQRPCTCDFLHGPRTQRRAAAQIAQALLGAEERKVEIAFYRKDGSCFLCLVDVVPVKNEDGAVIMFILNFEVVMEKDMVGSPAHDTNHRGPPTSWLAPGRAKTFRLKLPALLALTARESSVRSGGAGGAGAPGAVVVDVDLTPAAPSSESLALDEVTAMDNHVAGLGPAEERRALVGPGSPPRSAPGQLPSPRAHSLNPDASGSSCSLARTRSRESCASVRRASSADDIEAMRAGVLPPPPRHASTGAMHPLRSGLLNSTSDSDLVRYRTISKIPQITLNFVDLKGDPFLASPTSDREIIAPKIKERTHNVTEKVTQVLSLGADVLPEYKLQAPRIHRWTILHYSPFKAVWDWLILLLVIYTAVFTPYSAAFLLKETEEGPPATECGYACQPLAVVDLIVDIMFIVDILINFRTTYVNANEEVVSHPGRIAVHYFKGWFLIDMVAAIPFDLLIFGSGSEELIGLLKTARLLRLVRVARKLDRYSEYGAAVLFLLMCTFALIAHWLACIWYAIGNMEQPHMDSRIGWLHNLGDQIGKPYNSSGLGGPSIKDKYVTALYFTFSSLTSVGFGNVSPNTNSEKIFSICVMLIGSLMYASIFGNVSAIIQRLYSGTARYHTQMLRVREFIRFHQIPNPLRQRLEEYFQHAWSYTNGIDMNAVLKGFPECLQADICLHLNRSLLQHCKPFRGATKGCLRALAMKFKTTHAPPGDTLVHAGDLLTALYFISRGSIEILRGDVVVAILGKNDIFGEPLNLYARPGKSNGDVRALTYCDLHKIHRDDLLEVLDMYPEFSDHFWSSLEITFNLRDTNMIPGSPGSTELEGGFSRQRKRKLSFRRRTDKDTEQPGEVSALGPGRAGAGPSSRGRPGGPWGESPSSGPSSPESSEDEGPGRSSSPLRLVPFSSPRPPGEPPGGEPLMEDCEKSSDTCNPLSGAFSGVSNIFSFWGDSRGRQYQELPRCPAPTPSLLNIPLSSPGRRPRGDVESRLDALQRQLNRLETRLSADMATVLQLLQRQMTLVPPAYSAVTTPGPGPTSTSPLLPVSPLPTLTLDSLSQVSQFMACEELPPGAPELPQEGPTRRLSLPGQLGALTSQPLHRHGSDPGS

Structure (SMILES)	test	system	setting	inhibition [%]
COc1ccc(Nc2nccc(-c3c[nH]nc3-c3cccnc3)n2)cc1	automated patch clamp	–	10 µM	25.4
OC1(C(F)(F)F)CCN(c2nc(Nc3ccnc(C(F)(F)F)c3)nc(-c3cccc(C(F)(F)F)n3)n2)C1 (stereo not drawn)	potassium current, inhibitor	HEK293 expressing hERG	concentration not given, 5 min	< 40
COc1ccc(S(=O)(=O)N2CCc3ccccc3C2)cc1N1CCN(C(=O)c2ccc(F)cc2C(F)(F)F)CC1	automated patch clamp	–	0.1 to 10 µM	< 20
Brc1ccccc1-c1nnc(CSc2nnnn2-c2ccccc2)o1	tracer binding, competition binding	–	10 µM	48
Cc1ccc(OCC(=O)N(Cc2cccs2)c2ccn[nH]2)cc1	ion current, inhibitor, patch clamp	–	10 µM	< 10
N[C@H]1CCCc2c1[nH]c1ccc(Cl)cc21	ligand displacement, radioligand	–	10 µM	72.5
Cc1cc(O)cc(O)c1C(=O)c1c2c3c(c(O)cc(C)c3oc1=O)C(=O)c1c(O)cc(O)cc1-2	potassium current, inhibitor	HEK293	10 µM, pH 7.4	10.1 ± 5.9
CCC(=O)N(C)c1ccc(Cl)c(Cl)c1	ion current, inhibitor, patch clamp	HEK293	10 µM	3
CC12CC3CC(C)(C1)CC(NC(=O)Nc1ccc(C(=O)N4CCC[C@H](C(N)=O)C4)cc1F)(C3)C2	ion current, inhibitor, patch clamp	HEK293	3 µM	0.46

A few entries again:
Structure (SMILES)	test	system	setting	inhibition [%]
Cc1cc(O)cc(O)c1C(=O)c1c2c3c(c(O)cc(C)c3oc1=O)C(=O)c1c(O)cc(O)cc1-2	potassium current, inhibitor	HEK293	10 µM, pH 7.4	10.1 ± 5.9
